# Measured values of several laboratories.
# Every numbered part comes from another study and shows a few of its results, in no order.
# UniProt Q9P0L2, sequence (whole entry, looked up): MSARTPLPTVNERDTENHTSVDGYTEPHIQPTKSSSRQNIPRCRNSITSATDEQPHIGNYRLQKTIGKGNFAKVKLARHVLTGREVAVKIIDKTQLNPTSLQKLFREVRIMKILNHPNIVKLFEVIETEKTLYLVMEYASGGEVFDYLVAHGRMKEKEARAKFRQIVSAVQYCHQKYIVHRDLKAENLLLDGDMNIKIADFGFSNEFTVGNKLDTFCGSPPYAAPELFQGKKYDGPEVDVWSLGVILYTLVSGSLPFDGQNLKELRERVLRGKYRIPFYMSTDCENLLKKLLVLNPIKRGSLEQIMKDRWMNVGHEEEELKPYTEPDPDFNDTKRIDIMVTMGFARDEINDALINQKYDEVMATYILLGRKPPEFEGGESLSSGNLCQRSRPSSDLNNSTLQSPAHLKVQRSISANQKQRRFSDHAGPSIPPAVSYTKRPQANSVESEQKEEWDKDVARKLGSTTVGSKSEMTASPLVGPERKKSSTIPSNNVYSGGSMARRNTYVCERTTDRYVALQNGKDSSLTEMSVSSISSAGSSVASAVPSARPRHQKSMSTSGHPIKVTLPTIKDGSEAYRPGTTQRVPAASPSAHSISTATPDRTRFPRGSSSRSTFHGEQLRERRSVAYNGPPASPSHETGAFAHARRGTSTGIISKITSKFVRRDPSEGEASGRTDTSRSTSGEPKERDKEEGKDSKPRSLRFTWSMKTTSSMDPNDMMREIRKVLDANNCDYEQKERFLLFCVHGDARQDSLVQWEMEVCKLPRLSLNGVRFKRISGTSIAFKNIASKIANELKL
# UniProt O00506, sequence (whole entry, looked up): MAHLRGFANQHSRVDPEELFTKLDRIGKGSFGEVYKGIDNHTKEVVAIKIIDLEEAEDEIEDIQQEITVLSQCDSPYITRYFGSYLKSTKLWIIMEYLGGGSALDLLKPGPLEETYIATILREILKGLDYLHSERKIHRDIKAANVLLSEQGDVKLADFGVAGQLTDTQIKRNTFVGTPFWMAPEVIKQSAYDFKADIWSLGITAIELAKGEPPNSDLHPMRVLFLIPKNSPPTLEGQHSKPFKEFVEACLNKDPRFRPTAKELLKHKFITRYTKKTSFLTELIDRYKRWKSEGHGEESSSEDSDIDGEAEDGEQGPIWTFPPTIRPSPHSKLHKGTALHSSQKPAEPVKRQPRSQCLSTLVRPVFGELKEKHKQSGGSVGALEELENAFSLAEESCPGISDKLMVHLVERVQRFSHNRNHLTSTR

# Set 1 — observed: enzyme activity; action: inhibitor; concentration: 77 µM; reference: untreated
# Target: DNA polymerase theta, ATPase domain (POLQ, Homo sapiens, UniProt O75417)
# UniProt O75417, sequence (whole entry, unmodified, looked up): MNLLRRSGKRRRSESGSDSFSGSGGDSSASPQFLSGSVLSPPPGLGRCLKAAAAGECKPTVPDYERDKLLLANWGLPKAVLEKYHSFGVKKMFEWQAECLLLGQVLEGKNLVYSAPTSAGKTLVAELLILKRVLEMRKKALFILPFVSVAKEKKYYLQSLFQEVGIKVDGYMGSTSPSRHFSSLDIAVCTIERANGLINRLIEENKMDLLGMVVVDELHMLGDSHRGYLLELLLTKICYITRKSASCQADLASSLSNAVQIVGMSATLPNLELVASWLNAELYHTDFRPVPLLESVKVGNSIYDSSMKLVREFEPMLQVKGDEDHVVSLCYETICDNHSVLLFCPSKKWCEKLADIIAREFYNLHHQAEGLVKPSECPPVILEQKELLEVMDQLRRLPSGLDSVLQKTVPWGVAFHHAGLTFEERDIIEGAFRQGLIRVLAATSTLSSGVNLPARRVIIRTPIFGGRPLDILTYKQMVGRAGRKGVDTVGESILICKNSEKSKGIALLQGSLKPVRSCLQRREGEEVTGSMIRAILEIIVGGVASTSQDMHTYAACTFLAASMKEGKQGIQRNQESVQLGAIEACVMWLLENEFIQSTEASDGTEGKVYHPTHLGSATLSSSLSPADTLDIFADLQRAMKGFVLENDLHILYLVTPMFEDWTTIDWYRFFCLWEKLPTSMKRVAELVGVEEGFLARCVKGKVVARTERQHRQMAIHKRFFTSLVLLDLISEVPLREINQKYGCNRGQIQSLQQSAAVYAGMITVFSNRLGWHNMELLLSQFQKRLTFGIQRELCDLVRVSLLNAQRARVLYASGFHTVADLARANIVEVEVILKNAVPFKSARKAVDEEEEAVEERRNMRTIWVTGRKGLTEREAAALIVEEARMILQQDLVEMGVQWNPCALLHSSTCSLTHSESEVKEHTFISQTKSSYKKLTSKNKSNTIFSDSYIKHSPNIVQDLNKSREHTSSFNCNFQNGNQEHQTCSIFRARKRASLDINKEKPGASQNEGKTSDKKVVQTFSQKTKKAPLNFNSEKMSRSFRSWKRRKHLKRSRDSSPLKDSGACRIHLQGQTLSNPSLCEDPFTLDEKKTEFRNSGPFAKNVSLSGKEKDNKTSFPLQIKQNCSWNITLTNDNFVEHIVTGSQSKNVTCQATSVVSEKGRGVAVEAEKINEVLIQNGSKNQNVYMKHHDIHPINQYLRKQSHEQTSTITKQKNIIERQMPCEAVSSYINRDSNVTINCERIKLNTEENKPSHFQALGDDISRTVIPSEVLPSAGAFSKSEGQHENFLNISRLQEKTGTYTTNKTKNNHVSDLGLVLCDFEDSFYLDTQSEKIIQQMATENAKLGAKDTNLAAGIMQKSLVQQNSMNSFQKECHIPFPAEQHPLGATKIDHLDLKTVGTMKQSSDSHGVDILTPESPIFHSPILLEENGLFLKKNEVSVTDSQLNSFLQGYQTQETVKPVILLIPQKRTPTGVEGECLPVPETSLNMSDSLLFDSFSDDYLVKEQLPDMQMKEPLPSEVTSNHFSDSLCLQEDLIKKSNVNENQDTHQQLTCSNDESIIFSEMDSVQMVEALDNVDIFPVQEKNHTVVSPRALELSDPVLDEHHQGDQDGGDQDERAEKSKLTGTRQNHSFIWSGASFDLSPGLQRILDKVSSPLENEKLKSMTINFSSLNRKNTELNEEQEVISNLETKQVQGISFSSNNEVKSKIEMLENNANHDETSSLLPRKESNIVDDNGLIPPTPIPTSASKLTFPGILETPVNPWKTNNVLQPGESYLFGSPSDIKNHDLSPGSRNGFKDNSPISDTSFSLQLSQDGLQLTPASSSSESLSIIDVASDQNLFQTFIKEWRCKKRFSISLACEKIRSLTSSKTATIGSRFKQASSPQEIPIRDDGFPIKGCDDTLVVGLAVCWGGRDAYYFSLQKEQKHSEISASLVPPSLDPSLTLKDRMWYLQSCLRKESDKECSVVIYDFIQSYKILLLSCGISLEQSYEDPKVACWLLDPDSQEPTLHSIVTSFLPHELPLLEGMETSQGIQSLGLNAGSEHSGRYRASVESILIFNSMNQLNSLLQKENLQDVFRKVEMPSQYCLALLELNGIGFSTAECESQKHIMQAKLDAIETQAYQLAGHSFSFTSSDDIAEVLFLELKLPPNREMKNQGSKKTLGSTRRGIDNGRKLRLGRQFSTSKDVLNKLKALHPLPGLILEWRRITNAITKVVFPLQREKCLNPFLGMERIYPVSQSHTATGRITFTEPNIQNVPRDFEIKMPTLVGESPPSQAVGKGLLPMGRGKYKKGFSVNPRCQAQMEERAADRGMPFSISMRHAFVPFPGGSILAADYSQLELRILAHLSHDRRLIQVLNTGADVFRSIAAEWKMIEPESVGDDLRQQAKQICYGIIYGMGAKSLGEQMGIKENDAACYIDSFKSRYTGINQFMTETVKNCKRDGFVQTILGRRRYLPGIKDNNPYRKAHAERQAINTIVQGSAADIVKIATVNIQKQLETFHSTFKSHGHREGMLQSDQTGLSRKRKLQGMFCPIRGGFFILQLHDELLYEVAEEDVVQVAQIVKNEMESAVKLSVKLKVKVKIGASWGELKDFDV
Structure (SMILES),remaining activity
O=Nc1c(-c2c(O)[nH]c3cc(Br)ccc23)[nH]c2ccccc12,102%
CCCCN(CCCC)CC(O)c1cc(Cl)cc2c1-c1ccc(Cl)cc1/C2=C/c1ccc(Cl)cc1 (stereo not drawn),99.1%
C[C@]1(c2nc3c(C(N)=O)cccc3[nH]2)CCCN1,95.8%
O=C(C[S+]([O-])Cc1ccco1)NC/C=C\COc1cc(CN2CCCCC2)ccn1 (stereo not drawn),80.4%
O=C1Nc2ccccc2/C1=C\c1c(Cl)[nH]c2ccccc12,104%
COc1c2ccoc2cc2oc(=O)ccc12,106%

# Set 2 — observed: cell-free assay; method: competition with immobilised ligand; concentration: 1 µM
# SMILES: COc1ccc2c(c1)O[C@H](c1ccc(OC)c(OC)c1)C[C@@H]2NC(=O)C1(c2ccc3c(c2)OC(F)(F)O3)CC1
target,remaining binding [%]
"STK25 (Homo sapiens, UniProt O00506)",100
"MARK1 (Homo sapiens, UniProt Q9P0L2)",79
"SIK3 (Homo sapiens, UniProt Q9Y2K2)",95
"ROS1 (Homo sapiens, UniProt P08922)",73
"PRKAA1 (Homo sapiens, UniProt Q13131)",100
"TLK2 (Homo sapiens, UniProt Q86UE8)",98
"Cyclin-dependent kinase 4, with cyclin D3 (CDK4, Homo sapiens, UniProt P11802)",100
"WEE1 (Homo sapiens, UniProt P30291)",100

# Set 3 — observed: enzyme activity; action: inhibitor; concentration: 0.5 µM; reference: control
# Target: Tyrosine-protein kinase JAK1 (JAK1, Homo sapiens, UniProt P23458)
# UniProt P23458, sequence (whole entry, looked up): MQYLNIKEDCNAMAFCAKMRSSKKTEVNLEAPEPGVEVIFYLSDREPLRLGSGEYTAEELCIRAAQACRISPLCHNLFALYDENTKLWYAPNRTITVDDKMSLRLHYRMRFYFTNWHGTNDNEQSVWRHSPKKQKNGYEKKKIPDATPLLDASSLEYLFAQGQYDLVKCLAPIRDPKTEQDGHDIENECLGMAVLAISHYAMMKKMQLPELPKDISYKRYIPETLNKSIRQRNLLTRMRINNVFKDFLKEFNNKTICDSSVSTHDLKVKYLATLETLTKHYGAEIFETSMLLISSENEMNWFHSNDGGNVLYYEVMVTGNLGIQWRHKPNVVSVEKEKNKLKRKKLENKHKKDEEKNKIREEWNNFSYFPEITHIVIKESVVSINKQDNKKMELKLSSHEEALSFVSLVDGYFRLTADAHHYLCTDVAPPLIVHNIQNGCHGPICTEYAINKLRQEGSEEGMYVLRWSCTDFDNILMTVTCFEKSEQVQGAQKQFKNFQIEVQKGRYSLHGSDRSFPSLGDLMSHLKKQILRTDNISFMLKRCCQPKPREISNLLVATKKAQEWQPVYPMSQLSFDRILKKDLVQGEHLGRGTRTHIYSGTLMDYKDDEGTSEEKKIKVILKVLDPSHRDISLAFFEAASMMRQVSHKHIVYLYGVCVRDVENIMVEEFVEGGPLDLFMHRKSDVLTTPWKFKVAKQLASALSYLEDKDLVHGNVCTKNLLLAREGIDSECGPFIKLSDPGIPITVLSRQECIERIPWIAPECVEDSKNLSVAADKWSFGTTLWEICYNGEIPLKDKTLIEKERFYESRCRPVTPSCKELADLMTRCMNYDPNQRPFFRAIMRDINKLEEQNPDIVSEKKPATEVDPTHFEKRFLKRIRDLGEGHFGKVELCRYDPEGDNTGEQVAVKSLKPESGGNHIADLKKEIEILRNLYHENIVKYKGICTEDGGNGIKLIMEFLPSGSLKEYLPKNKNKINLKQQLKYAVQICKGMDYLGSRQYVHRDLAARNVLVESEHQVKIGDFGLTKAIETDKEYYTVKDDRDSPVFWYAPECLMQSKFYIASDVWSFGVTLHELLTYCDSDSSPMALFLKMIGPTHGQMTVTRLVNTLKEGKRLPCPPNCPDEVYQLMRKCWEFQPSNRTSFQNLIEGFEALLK
SMILES,remaining activity
Nc1ccc2ncnc(NCCc3ccc(Oc4ccccc4)cc3)c2c1,94.6%
COc1ccc(CNC(=O)Nc2ncc([N+](=O)[O-])s2)cc1,94.2%
COc1ccc(C(=O)Nc2sc3c(c2C(N)=O)CCCC3)cc1OC,104%
COc1cc2ncnc(Nc3ccc(Oc4ccccc4)cc3)c2cc1OC,105%
O=S(=O)(c1cccc2cnccc12)N1CCCNCC1,111%
CO[C@H]1C[C@@H]2CC[C@@H](C)[C@@](O)(O2)C(=O)C(=O)N2CCCC[C@H]2C(=O)O[C@H]([C@H](C)C[C@@H]2CC[C@@H](O)[C@H](OC)C2)CC(=O)[C@H](C)/C=C(\C)[C@@H](O)[C@@H](OC)C(=O)[C@H](C)C[C@H](C)/C=C/C=C/C=C/1C,103%
O=C(O)c1ccc2c3c1cccc3c(=O)n1c3ccccc3nc21,98.4%
Cc1nc(-c2ccccc2)c(-c2ccncc2)o1,103%
OCC(O)CCON=C1C(c2c(O)[nH]c3ccccc23)=Nc2ccccc21 (stereo not drawn),25.9%
Cc1ccc(Nc2nccc(N(C)c3ccc4c(C)n(C)nc4c3)n2)cc1S(N)(=O)=O,104%
COc1ccc(OC)c2c(=S)c3ccccc3[nH]c12,102%
CN(C)c1ccc(C=C2C(=O)Nc3ccccc32)cc1,105%
Nc1[nH]nc2nc3ccccc3nc12,99.8%
NCCNc1ncc(C(N)=O)c(Nc2cccc(C(F)(F)F)c2)n1,96.9%
N#CC(C#N)=C(N)/C(C#N)=C/c1ccc(O)cc1,99.4%

# Further values, each from its own experiment
Compound,target,assay,conditions,measurement,result
CCCCC[C@@H](O)[C@H]1C(=O)O[C@H](C)[C@@H](O)\C=C/C=C\C=C/C=C\C=C(\C)[C@@H](O)C[C@H](O)C[C@H](O)C[C@H](O)C[C@H](O)C[C@H](O)C[C@@H]1O,"Calcium/calmodulin-dependent protein kinase type II subunit alpha (CAMK2A, Homo sapiens, UniProt Q9UQM7)","enzyme activity, inhibitor",10 µM,inhibition,16%

# Excerpt of the above (set 1):
Structure (SMILES),remaining activity
C[C@]1(c2nc3c(C(N)=O)cccc3[nH]2)CCCN1,95.8%
O=C(C[S+]([O-])Cc1ccco1)NC/C=C\COc1cc(CN2CCCCC2)ccn1 (stereo not drawn),80.4%
O=C1Nc2ccccc2/C1=C\c1c(Cl)[nH]c2ccccc12,104%
COc1c2ccoc2cc2oc(=O)ccc12,106%
